Published values from different studies.
Target: MAP kinase-interacting serine/threonine-protein kinase 1 (MKNK1, Homo sapiens, UniProt Q9BUB5)

CN1CCN(Cc2ccc(NC(=O)c3cccc(C#Cc4cnc(N)c5ncccc45)c3)cc2C(F)(F)F)CC1 — remaining binding (cell-free assay, competition with immobilised ligand; 50 nM): 40%
NC(=O)[C@@H](O)C[C@H]1CCc2sc3ncnc(O[C@H]4CC[C@H](N5CCOCC5)CC4)c3c21 — inhibition (enzyme activity, inhibitor; 10 µM): -1%
Cc1ccc(C)c(-c2ccc3nc(NC(=O)C4CCCCC4)nn3c2)c1 — remaining activity (enzyme activity, Dundee kinase panel; 10 µM): 79%
C=CC(=O)Nc1cccc(-c2cnc3[nH]cc(C(=O)NC(C)(C)C)c3n2)c1 — inhibition (enzyme activity, inhibitor; 0.1 µM): 8%
C=C1CCCCCCCCCC(CO)C1=O (stereo not drawn) — remaining binding (cell-free assay, competition with immobilised ligand; 10 µM): 100%
Cc1cccc(O[C@H]2CCC[C@@H](C(C)CNCc3ccncc3)C2)c1 (relative stereo) — inhibition (enzyme activity, inhibitor; 1 µM): 3%
CNC1C[S+]2CC[S+]3CC[S+](C1)[Ru-4]321([N]=C=S)[n]2c3ccc(OC)cc3c3c4c(c5cc(F)c[n+]1c5c32)C(=O)NC4=O (stereo not drawn) — remaining binding (KinomeScan; 0.1 µM; baseline: untreated): 77%
COc1cc(Nc2nc(C)cc(-c3cnn4nc(OC)ccc34)n2)cc(C(F)(F)F)c1 — remaining activity (inhibitor; 1 µM; baseline: control): 93%
C=CC(=O)N1Cc2nc(-c3cc(-c4cc(Cl)cnc4Cl)c(F)cc3F)n(-c3ccncn3)c2C1 — inhibition (cell-free assay, inhibitor; 1 µM): 5%
Cc1ccc(-c2c[nH]nc2C(=O)NC2CC2)cc1 — remaining binding (cell-free assay, competition with immobilised ligand; 10 µM): 13%
COc1c(Cl)cccc1Nc1c(-c2ccncc2C#C[C@@]2(C)CCCN2C(=O)/C=C/CN(C)C)[nH]c2c1C(=O)NCC2 — remaining binding (binding, competition with immobilised ligand; 3 µM): 61%
Cc1cccc(-c2ccc3nc(NC(=O)C4CCCO4)nn3c2)c1 (stereo not drawn) — remaining activity (enzyme activity, Dundee kinase panel; 10 µM): 80%
Nc1ncc(-c2cc(-c3cnn(CC(F)(F)F)c3)ncc2F)nc1C(=O)NC1CNCC(F)C1 (stereo not drawn) — remaining activity (enzyme activity; 1 µM; baseline: DMSO control): 27.9%
CC(=O)N1c2ccc(-c3ccc(CNC(=O)c4cn5cc(-c6cnc(N)nc6)nc(N6CCOCC6)c5n4)cc3)cc2CC[C@@H]1C — remaining binding (KINOMEscan; 10 µM): 94%
CNS(=O)(=O)Nc1nccc(Cc2c(C)c3ccc(Oc4ncccc4F)cc3oc2=O)c1F — remaining binding (binding, competition with immobilised ligand; 10 µM): 100%
COc1ccc(NC(=O)Nc2ccc3c(c2)C(=O)N(C(C)CO)CC(C)C(CN(C)Cc2ccc4c(c2)OCO4)O3)cc1 (stereo not drawn) — remaining binding (binding, competition with immobilised ligand; 10 µM): 87%
Nc1ncc2c(n1)-c1c([nH]c3ccc(C4=CCOCC4)cc13)CCC2 — remaining binding (binding, competition with immobilised ligand; 1 µM): 100%
C[C@H]1CN(C(=O)c2cn(-c3ccnc(N)n3)c3cc(C#CC4(O)CCCCC4)ccc23)CCN1 — inhibition (enzyme activity, inhibitor, FRET; 1 µM): 2%
